Measured values of several laboratories.
Protocols differ between the studies behind these lines. Several values in a cell are separate wells, animals, samples, runs or records. Numbers after ± are the reported error.
YWHAZ: 14-3-3 protein zeta/delta (YWHAZ, Homo sapiens, UniProt P63104)
Chain of UniProt P63104 (whole entry, looked up): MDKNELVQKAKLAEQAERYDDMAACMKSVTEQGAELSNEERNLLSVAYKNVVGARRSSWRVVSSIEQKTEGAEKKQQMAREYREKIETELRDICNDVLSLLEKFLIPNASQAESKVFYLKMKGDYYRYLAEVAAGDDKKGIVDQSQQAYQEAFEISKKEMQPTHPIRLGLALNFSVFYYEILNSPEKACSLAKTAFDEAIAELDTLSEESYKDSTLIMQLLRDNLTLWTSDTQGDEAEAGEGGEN
lecA: PA-I galactophilic lectin (lecA, Pseudomonas aeruginosa, UniProt Q05097)
Chain of UniProt Q05097 (whole entry, looked up): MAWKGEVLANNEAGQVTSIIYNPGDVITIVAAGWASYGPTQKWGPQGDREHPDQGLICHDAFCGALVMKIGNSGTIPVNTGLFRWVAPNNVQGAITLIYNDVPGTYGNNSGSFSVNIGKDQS
Complement C3 C3b fragment: Complement C3, C3b fragment (Homo sapiens, UniProt P01024)
Chain of UniProt P01024 (whole entry, unmodified, looked up): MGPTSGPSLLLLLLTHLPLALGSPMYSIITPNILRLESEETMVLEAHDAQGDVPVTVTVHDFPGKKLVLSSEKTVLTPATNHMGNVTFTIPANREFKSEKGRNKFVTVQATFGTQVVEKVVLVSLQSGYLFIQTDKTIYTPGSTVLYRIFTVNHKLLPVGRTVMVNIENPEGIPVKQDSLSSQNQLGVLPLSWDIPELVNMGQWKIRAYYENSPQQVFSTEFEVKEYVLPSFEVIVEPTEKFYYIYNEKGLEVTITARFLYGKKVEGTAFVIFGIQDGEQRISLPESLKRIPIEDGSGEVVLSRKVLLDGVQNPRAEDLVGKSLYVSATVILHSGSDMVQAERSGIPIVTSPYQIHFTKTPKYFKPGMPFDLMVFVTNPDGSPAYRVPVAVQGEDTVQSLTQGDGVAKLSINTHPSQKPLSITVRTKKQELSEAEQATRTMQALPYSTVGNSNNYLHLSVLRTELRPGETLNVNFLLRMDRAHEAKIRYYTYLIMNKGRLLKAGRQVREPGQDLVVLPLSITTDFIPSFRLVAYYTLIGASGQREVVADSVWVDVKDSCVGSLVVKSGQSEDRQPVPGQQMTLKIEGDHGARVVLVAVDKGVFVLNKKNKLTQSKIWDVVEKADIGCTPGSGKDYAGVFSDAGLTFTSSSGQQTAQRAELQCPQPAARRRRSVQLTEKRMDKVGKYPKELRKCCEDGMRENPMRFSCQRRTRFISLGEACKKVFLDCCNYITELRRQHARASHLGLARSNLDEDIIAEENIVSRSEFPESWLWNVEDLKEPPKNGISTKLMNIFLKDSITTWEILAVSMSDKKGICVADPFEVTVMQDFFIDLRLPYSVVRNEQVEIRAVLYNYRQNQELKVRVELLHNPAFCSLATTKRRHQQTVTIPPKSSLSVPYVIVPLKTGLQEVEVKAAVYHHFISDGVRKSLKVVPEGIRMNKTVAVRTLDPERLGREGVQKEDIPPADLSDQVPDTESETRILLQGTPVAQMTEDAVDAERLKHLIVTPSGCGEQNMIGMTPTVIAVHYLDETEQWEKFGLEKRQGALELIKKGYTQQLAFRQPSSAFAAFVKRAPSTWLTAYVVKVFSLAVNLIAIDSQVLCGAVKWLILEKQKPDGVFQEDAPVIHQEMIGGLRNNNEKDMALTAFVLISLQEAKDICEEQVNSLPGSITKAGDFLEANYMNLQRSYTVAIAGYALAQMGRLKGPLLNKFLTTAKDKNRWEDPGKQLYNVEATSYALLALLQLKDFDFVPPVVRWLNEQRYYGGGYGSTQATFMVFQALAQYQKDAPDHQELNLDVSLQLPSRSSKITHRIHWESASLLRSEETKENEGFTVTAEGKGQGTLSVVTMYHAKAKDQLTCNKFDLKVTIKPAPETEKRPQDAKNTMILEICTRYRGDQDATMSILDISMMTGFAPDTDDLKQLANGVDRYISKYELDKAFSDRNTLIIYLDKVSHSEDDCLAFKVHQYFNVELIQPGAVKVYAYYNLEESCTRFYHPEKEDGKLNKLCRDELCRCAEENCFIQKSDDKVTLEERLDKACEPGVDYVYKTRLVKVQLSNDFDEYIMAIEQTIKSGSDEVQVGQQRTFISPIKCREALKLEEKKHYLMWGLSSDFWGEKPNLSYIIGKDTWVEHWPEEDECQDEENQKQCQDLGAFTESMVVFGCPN
Chain of UniProt Q08460 (whole entry, looked up): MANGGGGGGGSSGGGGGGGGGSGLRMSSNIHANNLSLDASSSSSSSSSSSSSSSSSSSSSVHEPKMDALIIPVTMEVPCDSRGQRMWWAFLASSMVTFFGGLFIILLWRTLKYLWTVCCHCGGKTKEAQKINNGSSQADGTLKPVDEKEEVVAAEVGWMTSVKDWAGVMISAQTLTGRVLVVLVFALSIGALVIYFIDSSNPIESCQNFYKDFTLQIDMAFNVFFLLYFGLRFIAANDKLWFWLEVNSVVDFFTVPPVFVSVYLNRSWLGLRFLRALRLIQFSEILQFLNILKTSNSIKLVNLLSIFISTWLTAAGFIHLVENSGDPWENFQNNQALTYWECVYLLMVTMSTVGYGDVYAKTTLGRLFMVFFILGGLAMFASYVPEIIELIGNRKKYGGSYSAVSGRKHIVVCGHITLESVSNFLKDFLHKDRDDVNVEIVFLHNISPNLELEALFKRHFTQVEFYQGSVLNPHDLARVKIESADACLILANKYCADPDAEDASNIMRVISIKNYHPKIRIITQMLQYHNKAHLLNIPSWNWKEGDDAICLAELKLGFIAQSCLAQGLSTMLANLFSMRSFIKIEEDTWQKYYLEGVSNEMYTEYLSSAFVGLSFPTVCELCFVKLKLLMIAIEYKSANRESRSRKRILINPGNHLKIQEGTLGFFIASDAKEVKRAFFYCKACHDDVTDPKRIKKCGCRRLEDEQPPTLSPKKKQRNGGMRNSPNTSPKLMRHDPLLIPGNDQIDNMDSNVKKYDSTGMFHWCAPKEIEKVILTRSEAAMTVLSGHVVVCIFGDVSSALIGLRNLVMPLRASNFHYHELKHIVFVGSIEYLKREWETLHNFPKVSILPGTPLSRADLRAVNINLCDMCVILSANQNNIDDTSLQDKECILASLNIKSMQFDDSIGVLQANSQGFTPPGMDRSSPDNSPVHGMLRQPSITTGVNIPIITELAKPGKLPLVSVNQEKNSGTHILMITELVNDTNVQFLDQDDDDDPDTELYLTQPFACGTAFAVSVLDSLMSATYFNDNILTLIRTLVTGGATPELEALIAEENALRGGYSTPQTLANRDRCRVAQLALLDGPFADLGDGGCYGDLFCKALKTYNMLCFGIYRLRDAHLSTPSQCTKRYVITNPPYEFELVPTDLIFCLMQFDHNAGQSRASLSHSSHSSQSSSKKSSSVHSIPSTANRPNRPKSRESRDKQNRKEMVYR
Chain of UniProt P07687 (whole entry, looked up): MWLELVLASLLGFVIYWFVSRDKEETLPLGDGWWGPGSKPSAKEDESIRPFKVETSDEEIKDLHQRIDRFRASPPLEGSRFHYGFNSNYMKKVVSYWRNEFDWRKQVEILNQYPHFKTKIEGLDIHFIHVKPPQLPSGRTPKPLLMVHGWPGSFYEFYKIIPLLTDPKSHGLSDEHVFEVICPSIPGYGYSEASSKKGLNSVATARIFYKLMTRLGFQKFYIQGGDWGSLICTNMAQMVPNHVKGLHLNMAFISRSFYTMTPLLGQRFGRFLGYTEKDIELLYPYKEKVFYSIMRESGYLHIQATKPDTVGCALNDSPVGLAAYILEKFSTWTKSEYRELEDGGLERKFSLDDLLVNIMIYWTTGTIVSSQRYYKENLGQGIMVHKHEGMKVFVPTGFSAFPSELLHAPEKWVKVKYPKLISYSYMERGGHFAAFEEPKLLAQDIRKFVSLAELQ
Chain of UniProt Q15691 (whole entry, looked up): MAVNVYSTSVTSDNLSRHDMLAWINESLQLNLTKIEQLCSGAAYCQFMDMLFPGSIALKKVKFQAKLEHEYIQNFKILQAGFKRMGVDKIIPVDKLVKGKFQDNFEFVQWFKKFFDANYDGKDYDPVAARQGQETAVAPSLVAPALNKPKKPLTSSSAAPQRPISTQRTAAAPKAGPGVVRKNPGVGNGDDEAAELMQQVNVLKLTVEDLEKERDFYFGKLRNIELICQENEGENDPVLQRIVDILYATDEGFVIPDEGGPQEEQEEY
Chain of UniProt P18654 (whole entry, looked up): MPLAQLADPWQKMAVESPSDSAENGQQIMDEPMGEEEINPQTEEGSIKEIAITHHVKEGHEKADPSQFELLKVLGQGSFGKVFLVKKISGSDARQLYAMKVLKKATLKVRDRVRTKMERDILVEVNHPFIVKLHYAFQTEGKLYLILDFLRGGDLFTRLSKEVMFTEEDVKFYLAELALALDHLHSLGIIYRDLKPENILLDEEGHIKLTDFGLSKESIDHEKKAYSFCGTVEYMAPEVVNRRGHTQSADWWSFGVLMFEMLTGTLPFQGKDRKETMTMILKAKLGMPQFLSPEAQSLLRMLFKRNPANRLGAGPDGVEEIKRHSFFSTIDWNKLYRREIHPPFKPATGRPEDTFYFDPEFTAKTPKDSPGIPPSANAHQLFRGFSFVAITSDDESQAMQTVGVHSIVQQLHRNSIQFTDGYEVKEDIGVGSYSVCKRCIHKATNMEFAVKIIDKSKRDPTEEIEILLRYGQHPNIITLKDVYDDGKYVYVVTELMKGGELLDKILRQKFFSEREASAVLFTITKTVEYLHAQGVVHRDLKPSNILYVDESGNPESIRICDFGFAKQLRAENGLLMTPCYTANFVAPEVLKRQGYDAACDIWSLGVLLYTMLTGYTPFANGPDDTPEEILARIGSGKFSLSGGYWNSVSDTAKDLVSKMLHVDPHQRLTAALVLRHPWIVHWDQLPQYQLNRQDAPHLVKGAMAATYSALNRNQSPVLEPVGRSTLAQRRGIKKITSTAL
Chain of UniProt P62942 (whole entry, looked up): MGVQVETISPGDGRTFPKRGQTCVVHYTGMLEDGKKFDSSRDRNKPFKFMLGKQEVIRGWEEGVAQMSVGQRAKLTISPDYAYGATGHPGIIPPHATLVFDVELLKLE

Compound | target | assay | system | conditions | how to read | quantity | result
CC[C@H](C)[C@H](NC(=O)[C@H](CCCNC(=N)N)NC(=O)[C@H](CCCCN)NC(=O)[C@@H](NC(=O)[C@H](C)NC(=O)[C@H](CCCNC(=N)N)NC(=O)[C@H](CCC(N)=O)NC(=O)[C@H](CO)NC(=O)[C@H](CCCCN)NC(=O)[C@H](CC(N)=O)NC(=O)[C@@H](N)CCCNC(=N)N)[C@@H](C)O)C(=O)N[C@@H](CO)C(=O)N[C@@H](Cc1c[nH]cn1)C(=O)N[C@@H](CCSC)C(=O)N1CCC[C@H]1C(=O)N[C@@H](CO)C(=O)N[C@@H](CCCNC(=N)N)C(=O)N1CCC[C@H]1C(=O)N[C@@H](CCC(=O)O)C(=O)N[C@@H](CC(C)C)C(=O)N[C@@H](CO)C(=O)N[C@@H](C)C(=O)N[C@H](C(=O)N[C@@H](C)C(=O)N[C@H](C(=O)N[C@@H](CC(=O)O)C(=O)N[C@@H](CC(C)C)C(=O)N[C@@H](CCCNC(=N)N)C(=O)N[C@@H](CCCCN)C(=O)N[C@@H](CC(=O)O)C(=O)N[C@@H](CCCCN)C(=O)N[C@@H](C)C(=O)N[C@@H](CCCCN)C(=O)N[C@@H](COP(=O)(O)O)C(=O)N[C@@H](CSC/C=C(\C)CC/C=C(\C)CCC=C(C)C)C(=O)OC)[C@@H](C)O)C(C)C | YWHAZ | binding |  |  |  | koff | 8.02 s⁻¹
CC(=O)N[C@H]1NC[C@H](C(=O)O)[C@H](O)[C@@H]1O | Sialidase-2 (Homo sapiens, UniProt Q9Y3R4) |  |  | pH 6.0 | relative to: compound over DANA | Ki ratio | 2.5 fold
CC1=C(O)C(=O)C=C2C1=CC=C1[C@@]2(C)CC[C@@]2(C)[C@@H]3C[C@](C)(C(=O)NCCOCCOCCOCCOCC(=O)N[C@H](C(=O)N4C[C@H](O)C[C@H]4C(=O)N[C@@H](C)c4ccc(-c5scnc5C)cc4)C(C)(C)C)CC[C@]3(C)CC[C@]12C | Nuclear receptor subfamily 4 group A member 1 (NR4A1, Homo sapiens, UniProt P22736) | protein degradation, degrader, immunoblotting | M229 melanoma cells | concentration not given, 16 h |  | protein level | decreased
CC[C@H](C)[C@H](NC(C)=O)C(=O)N[C@H]1CSSC[C@@H](C(=O)N[C@H](C(N)=O)[C@@H](C)O)NC(=O)[C@H](CCCNC(=N)N)NC(=O)[C@H](Cc2c[nH]cn2)NC(=O)[C@@H]2CCCN2C(=O)CNC(=O)[C@H](Cc2c[nH]c3ccccc23)NC(=O)[C@H](CC(=O)O)NC(=O)[C@H](CCC(N)=O)NC(=O)[C@H](Cc2cn(C)c3ccccc23)NC(=O)[C@H](C(C)C)NC1=O | Complement C3 (Homo sapiens, UniProt P01024) | ITC |  | 25 °C | more negative = stronger binding | ΔG | -10.1 kcal/mol
CNS(=O)(=O)Nc1cccc(-n2c(=O)n(C3CC3)c(=O)c3c(Nc4ccc(I)cc4F)n(C)c(=O)c(C)c32)c1 | MAP2K1 (Homo sapiens, UniProt Q02750) | phosphorylation by upstream kinase, inhibitor |  | 1 µM |  | outcome | inhibited
CC(C)(C)NC(=O)[C@@H]1C[C@@H]2CCCC[C@@H]2CN1C[C@@H](OC(=O)CCC(=O)OC[C@H](O)[C@H]1OC(=O)C(O)=C1O)[C@H](Cc1ccccc1)NC(=O)[C@H](CC(N)=O)NC(=O)c1ccc2ccccc2n1 | Sodium-dependent vitamin C transporter (Canis lupus familiaris, UniProt A8CX01) | substrate | MDCK-MDR1 | 25 µM, 60 min, together with: ascorbic acid 5 mM | relative to: without ascorbic acid | uptake reduction | 27%
COc1ccc(S(=O)(=O)N2CCC(=O)N(CC(=O)Nc3ccc(OC)cc3OC)CC2)cc1 | GRM4 (Homo sapiens, UniProt Q14833) | calcium mobilization, positive allosteric modulator | CHO cells expressing Gqi5 | together with: glutamate | relative to: PHCCC maximal response | maximal response | 16.4 ± 0.8%
CC(C)=CCC[C@](C)(O)[C@H]1CC[C@]2(C)[C@@H]1[C@H](O)C[C@@H]1[C@@]3(C)CC[C@H](O)C(C)(C)[C@@H]3CC[C@]12C | YWHAZ | isothermal titration calorimetry |  | concentration not given |  | binding entropy | 18.7 cal/mol/K
COc1ccc(CCCN[C@@H]2CCC[C@H]2CN[C@H]2CCC[C@@H]2CNCCCCN[C@H]2CCC[C@@H]2CN)cc1 | KDM1B (Homo sapiens, UniProt Q8NB78) | peroxidase-coupled |  |  | relative to: Ki for KDM1B over Ki for LSD1 | selectivity ratio | 4.7
N=C(N)NCCC[C@H](NC(=O)[C@H](Cc1ccccc1)NC(=O)[C@@H]1CCCN1C(=O)[C@H](CO)NC(=O)[C@H](Cc1ccccc1)NC(=O)CNC(=O)[C@@H]1CCCN1C(=O)[C@@H]1CCCN1C(=O)[C@@H](N)CCCNC(=N)N)C(=O)O | B2 bradykinin receptor (Rattus norvegicus, UniProt P25023) | inositol phosphate accumulation, agonist | primary rat trigeminal ganglion cells |  |  | Emax | 47 ± 3 % above basal
O=C1c2ccc(O)cc2OC(Oc2ccc(-c3coc4cc(O)ccc4c3=O)cc2)C1(O)c1ccc(O)cc1 (stereo not drawn) | laccase (Trametes versicolor) | substrate |  | product formation |  | Km | 168 ± 10.6 µM
O=C(CCC1CO1)Oc1ccc([N+](=O)[O-])cc1 (racemic) | Epoxide hydrolase 1 (Ephx1, Rattus norvegicus, UniProt P07687) | substrate, absorbance |  | 50 µM, pH 9.0, 37 °C, rat enzyme |  | signal to background ratio | 2 and 3
N#CCC(=O)N1CCC[C@H]1Cn1nc(-c2ccc(Oc3ccccc3)cc2F)c2c(N)ncnc21 | BTK (Homo sapiens, UniProt Q06187) |  |  |  |  | residence time | < 6 min
OC[C@H]1O[C@@H](Oc2ccc(-c3cn([C@@H]4O[C@H](CO)[C@@H](n5cc(CCCCc6cn([C@H]7[C@H](O)[C@@H](O)[C@H](n8cc(-c9ccc(O[C@@H]%10O[C@H](CO)[C@H](O)[C@H](O)[C@H]%10O)cc9)nn8)O[C@@H]7CO)nn6)nn5)[C@H](O)[C@H]4O)nn3)cc2)[C@H](O)[C@@H](O)[C@H]1O | lecA | isothermal titration calorimetry |  | 298 K |  | -TΔS | 7.2 ± 0.5 kcal/mol
COC(=O)/C(C#N)=C/c1c(-c2ccc(C)cc2)c2c(N)ncnc2n1CCCO | Ribosomal protein S6 kinase alpha-3, C-terminal kinase domain (Rps6ka3, Mus musculus, UniProt P18654) | kinetic trap, LC-MS |  | 10 µM, together with: 100 µM FMK trap |  | dissociation half-life | 42 min
O[C@@H]1[C@@H](O)[C@H](O[C@@H]2OC[C@@H](O)[C@H](O)[C@H]2O)C[C@H]2O[C@@H]12 | endo-1,4-beta-xylanase (Aspergillus aculeatus, UniProt A0A1L9WG58) | covalent inhibitor |  | pH 5.0, together with: 4MU-β-D-xylobioside |  | kinact | 0.197 s⁻¹
[3H]C([3H])([3H])c1cnccc1CN1C[C@@H](c2cc(F)c(F)c(F)c2)CC1=O | SV2A (Homo sapiens, UniProt Q7L0J3) | radioligand binding | human Alzheimer disease, frontal cortex |  | relative to: P2 fraction over homogenate | specific binding ratio | ~38 fold
CC[C@H](C)[C@H](NC(C)=O)C(=O)N[C@H]1CSSC[C@@H](C(=O)N[C@H](C(N)=O)[C@@H](C)O)NC(=O)[C@H](CCCNC(=N)N)NC(=O)[C@H](Cc2c[nH]cn2)NC(=O)[C@H](C)NC(=O)CNC(=O)[C@H](Cc2c[nH]c3ccccc23)NC(=O)[C@H](CC(=O)O)NC(=O)[C@H](CCC(N)=O)NC(=O)[C@H](Cc2ccc(OC)cc2)NC(=O)[C@H](C(C)C)NC1=O | Complement C3 C3b fragment | SPR |  | pH 7.4, 25 °C |  | kon | 700000 ± 50000 M⁻¹ s⁻¹
CCCC[C@H](NC(=O)[C@@H]1CSSC[C@H](NC(=O)[C@@H](NC(C)=O)[C@@H](C)CC)C(=O)N[C@@H](C(C)C)C(=O)N[C@@H](Cc2cn(C)c3ccccc23)C(=O)N[C@@H](CCC(N)=O)C(=O)N[C@@H](CC(=O)O)C(=O)N[C@@H](Cc2c[nH]c3ccccc23)C(=O)N(C)CC(=O)N[C@@H](C)C(=O)N[C@@H](Cc2c[nH]cn2)C(=O)N[C@@H](CCCNC(=N)N)C(=O)N1)C(N)=O | Complement C3 C3b fragment | SPR |  | 25 °C | relative to: [Trp(Me)4]-Ac-compstatin | relative association rate constant | 1.5
C=C1CCN2C(=O)COc3cccc(c3)C(CCc3ccc(OC)c(OC)c3)OC(=O)C3CCCCN3C(=O)C(=O)C(C)(C)COC(=O)C(C)NC(=O)C2C1 (stereo not drawn) | FKBP1A/MAPRE1 (Homo sapiens, UniProt P62942+Q15691) | FKBP12-MAPRE1 proximity, TR-FRET |  | concentration not given | relative to: DMSO | recruitment | 0%
OC[C@H]1O[C@@H](Oc2ccc(OCCc3cn([C@H]4[C@H](O)[C@@H](O)[C@H](c5cn([C@H]6[C@H](O)[C@@H](O)[C@H](n7cc(CCOc8ccc(O[C@@H]9O[C@H](CO)[C@H](O)[C@H](O)[C@H]9O)cc8)nn7)O[C@@H]6CO)nn5)O[C@@H]4CO)nn3)cc2)[C@H](O)[C@@H](O)[C@H]1O | lecA | isothermal titration calorimetry |  | 25 °C |  | ΔG | -10.2 ± 0.3 kcal/mol
O=C([O-])CN(CCN(CC(=O)[O-])Cc1cc(CCC(=O)NCCCCCC(=O)NCCCC[C@H](NC(=O)N[C@@H](CCC(=O)O)C(=O)O)C(=O)O)ccc1O)Cc1cc(CCC(=O)O)ccc1[O-].[68Ga+3] | FOLH1 (Homo sapiens, UniProt Q04609) | PET/CT | human, liver metastasis |  |  | SUVmax | ~9
CC1(C)CCN(Cc2ccc(C(=O)NC[C@]3(O)CCCN(c4cc(NCc5ccccc5)ncn4)C3)c(O)c2)CC1 | FLT3 (Homo sapiens, UniProt P36888, D835Y) | kinase activity, radiometric |  | 10 µM, together with: 10 µM ATP |  | remaining activity | 68%
CSCC[C@H](NC(C)=O)C(=O)NCC(=O)NCC(=O)N[C@@H](CCC(=O)O)C(=O)N[C@@H](CC(C)C)C(=O)N[C@H](C(=O)N[C@H](C(=O)NCC(=O)N[C@@H](CC(C)C)C(=O)NCC(=O)N[C@@H](C)C(=O)N[C@@H](CC(C)C)C(=O)N[C@@H](CCCNC(=N)N)C(=O)N[C@@H](CCCNC(=N)N)C(=O)N[C@@H](CCCNC(=N)N)C(=O)N[C@@H](CCCCN)C(=O)N[C@@H](CCCNC(=N)N)C(=O)N[C@@H](CC(C)C)C(=O)N[C@@H](CC(C)C)C(=O)N[C@@H](CCC(=O)O)C(=O)N[C@@H](CCC(N)=O)C(=O)N[C@@H](CCC(=O)O)C(=O)N[C@@H](CCCCN)C(=O)N[C@@H](CCCNC(=N)N)C(N)=O)[C@@H](C)O)C(C)C | Kcnma1 (Mus musculus, UniProt Q08460) | BK current, blocker, inside-out patch |  | 25 µM, +50 mV |  | blocking time constant | 21 ms

Excerpt of the above:
Compound | target | assay | system | conditions | how to read | quantity | result
CC(C)(C)NC(=O)[C@@H]1C[C@@H]2CCCC[C@@H]2CN1C[C@@H](OC(=O)CCC(=O)OC[C@H](O)[C@H]1OC(=O)C(O)=C1O)[C@H](Cc1ccccc1)NC(=O)[C@H](CC(N)=O)NC(=O)c1ccc2ccccc2n1 | Sodium-dependent vitamin C transporter (Canis lupus familiaris, UniProt A8CX01) | substrate | MDCK-MDR1 | 25 µM, 60 min, together with: ascorbic acid 5 mM | relative to: without ascorbic acid | uptake reduction | 27%
